Published values pooled from the literature.
Every numbered part comes from another study and shows a few of its results, in no order. Positions count from the first letter of the parent shown.

Series 1
Target: ABI1, truncated, D143A, DHFR fusion (Arabidopsis thaliana)
Technique: DHFR PCA, deep sequencing
Medium: yeast
Setting: methotrexate growth selection, single substitutions
Added: (+)-ABA 17 µM
Baseline: wild-type fitted maximum
Reading: higher = stronger binding
Starting sequence: PYL1, truncated, DHFR fusion (Arabidopsis thaliana); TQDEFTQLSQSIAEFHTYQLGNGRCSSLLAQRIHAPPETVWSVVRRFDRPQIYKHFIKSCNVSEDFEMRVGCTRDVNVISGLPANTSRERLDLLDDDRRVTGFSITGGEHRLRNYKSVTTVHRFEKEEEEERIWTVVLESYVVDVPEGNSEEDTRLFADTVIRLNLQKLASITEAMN; partner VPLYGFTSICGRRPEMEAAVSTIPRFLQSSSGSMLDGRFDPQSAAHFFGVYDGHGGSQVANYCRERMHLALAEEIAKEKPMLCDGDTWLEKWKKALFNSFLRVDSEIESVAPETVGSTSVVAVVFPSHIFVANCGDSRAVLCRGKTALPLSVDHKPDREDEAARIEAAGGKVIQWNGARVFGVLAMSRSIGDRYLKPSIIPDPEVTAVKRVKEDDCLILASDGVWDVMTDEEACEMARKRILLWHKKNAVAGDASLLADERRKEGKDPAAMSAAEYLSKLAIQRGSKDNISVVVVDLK
`N114M`: “relative binding score” 9.29%.
`T120Y` — result for “relative binding score”: -3.75%.
`F5T`: “relative binding score” 73.2%.
`A84I`: “relative binding score” 4.25%.
For `T154K`, “relative binding score” read 0.152%.
`K54M`: “relative binding score” -11.6%.
`R45E`: “relative binding score” 4.64%.
For `S42M`, “relative binding score” read 65%.
`P36G`: “relative binding score” 47.6%.
`I57N` — result for “relative binding score”: -2.83%.
For `V142D`, “relative binding score” read 40.7%.
`E14I`: “relative binding score” 49.2%.
For `D3S`, “relative binding score” read 79%.
`C72Q` — result for “relative binding score”: 82.3%.
`L112T` — result for “relative binding score”: 0.149%.
Under “relative binding score”, `H34R` is recorded as 74.9%.

Series 2
Target: RING finger protein unkempt homolog, zinc fingers 1-6, GST-SBP tag (UNK, Homo sapiens, UniProt Q9C0B0, residues 30-357)
Technique: RNA Bind-n-Seq
Molecule type: RNA
Medium: in vitro
Tested at: not given
Setting: RNA with constant flanks, human-mouse chimeric sites, ends assumed
Baseline: input RNA pool
Reading: higher = stronger binding
All sequences stand within: GGGAGUUCUACAGUCCGACGAUC … CAACAGAGGAUUGAGCAUCA
Construct (chain): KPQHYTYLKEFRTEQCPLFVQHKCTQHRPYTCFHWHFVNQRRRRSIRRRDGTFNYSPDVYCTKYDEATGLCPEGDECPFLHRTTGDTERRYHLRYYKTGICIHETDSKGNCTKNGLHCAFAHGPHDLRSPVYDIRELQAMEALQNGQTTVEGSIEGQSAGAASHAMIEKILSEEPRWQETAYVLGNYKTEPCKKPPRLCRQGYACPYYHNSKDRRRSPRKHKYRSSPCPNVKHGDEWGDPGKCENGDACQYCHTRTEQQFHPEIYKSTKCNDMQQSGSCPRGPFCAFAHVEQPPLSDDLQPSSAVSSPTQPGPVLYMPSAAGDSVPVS
`UACUCAACUUUCUUUCCACAUUUUGAAUUCCAAGACAUUAUCCCUCCAGAUGACUUCCUAACGAGUGAUGAAGAGCAAGAUUUGGUUUUAUUUGGAACUAUGAGAGGACAAGUUGUUGGA` has a bound/input enrichment of 0.185 ratio.
The bound/input enrichment of `AGAAAGCAAAACUUGGAAAGAUUUAAGAAAGGAGACGUAAGAUUCUUGAUUUGCACAGAUGUAGCUGCUAGAGGGAUUGAUAUCCAUGGUGUUCCUUAUGUGAUCAACGUCACCCUGCCU` is reported as 0.322 ratio.
`AGGAGGAGGUUAAAGGGUGAGAGUGGGGUGGAAGACUGUGUCAUGGCUCUGGAGACAUUGUUUAGUGUCCUGCUUUCUCUGUGCAGACUGAUGGCCCCUUACACGCCUUUUCUCACUGAG` gave a bound/input enrichment of 0.0979 ratio.
For `CAGCCUCAGAGCCCUGACUUCCUGGAUAUUACCAACCCUAAAGCGGUAUUAGAAAAUGCAUUGAGAAACUUCGCCUGUCUGACCACCGGAGAUGUGAUUGCUAUCAACUACAAUGAGAAG`, the bound/input enrichment was 0.551 ratio.
`UGACAAGGGCACUGCAGAGCCAUGCCUUUCUUGGACAUCCAGAAAAGGCUGGGCAUCAGCCUGGACCGGCACUUUAUGUUCCUAAGCGCAGAACAGCCCUAUAAGAACGCCGCUCGGUGC` has a bound/input enrichment of 0.0547 ratio.
`GAAUCCUACUCAGGCGGAUUUUGCAACACCAAGCUCACAGCAGCAGCUCCAUAGUCACAGUAGGGUAGCUUUAGGGCUCUGUGGCCAGGGUUUUAUUCACAUGCAGGUUUGGAAAAUGUA` gave a bound/input enrichment of 0.724 ratio.

Series 3
Target: CCNB3, cyclin fold, Cln2 fusion (human)
Technique: yeast growth competition, sequencing
Medium: yeast
Setting: weak parent motif
Baseline: not given
Reading: higher = stronger binding
Starting sequence: CDC42EP1 docking peptide (human); SLVVGKLSFDSSP
For `SLAVGKLSFDSSP [V3A]`, “normalised enrichment score” read -0.0838.
`SLVVGALSFDSSP [K6A]`: “normalised enrichment score” -0.02.
For `SLVVGKLSFDSSA [P13A]`, “normalised enrichment score” read 0.323.
`ALVVGKLSFDSSP [S1A]`: “normalised enrichment score” 0.141.
`SLVVAKLSFDSSP [G5A]` — result for “normalised enrichment score”: -0.0527.
Under “normalised enrichment score”, `SLVVGKLSFDSAP [S12A]` is recorded as 0.449.

Series 4
Target: Interferon regulatory factor 7, full length, phosphomimetic (IRF7, Homo sapiens, UniProt Q92985, residues 1-503, S101K/S471D/S472D/S475D/S476D/S477D/S483D/S484D/S487D)
Technique: protein-binding microarray
Molecule type: double-stranded DNA, one strand shown
Medium: in vitro
Tested at: 250 nM
Setting: 60-bp whole probe
Added: salmon DNA 0.4 mg/ml
Baseline: random background probes
Reading: higher = stronger binding
All sequences stand within: GCCTAGCAC … GTCTTGATTCGCTTGACGCTGCTG
Target sequence (chain): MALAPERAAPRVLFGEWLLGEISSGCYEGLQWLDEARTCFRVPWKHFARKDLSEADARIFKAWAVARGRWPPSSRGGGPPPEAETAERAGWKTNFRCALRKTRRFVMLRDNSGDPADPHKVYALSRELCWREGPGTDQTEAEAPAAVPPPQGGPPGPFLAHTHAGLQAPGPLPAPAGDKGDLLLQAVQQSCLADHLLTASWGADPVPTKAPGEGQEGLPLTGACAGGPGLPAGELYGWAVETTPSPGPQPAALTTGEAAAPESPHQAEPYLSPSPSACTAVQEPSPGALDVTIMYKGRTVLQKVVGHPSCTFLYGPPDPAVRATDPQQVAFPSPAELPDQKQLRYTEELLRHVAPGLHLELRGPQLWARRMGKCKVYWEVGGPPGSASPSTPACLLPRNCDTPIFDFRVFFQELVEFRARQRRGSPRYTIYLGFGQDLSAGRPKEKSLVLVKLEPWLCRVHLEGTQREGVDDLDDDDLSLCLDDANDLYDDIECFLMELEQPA
The log fluorescence of `TTAGATTTCGGGACTGTATTAGTGCTA` is reported as 0.681 z-score.
With `GACGGTTTCGTCTTTCGGGACGTGCTA` the log fluorescence was 9.21 z-score.
`TTAGGACTGCTTCTCCTTTAGTGCTAG` has a log fluorescence of 0.656 z-score.
`GCAAAAATGATTGGTTGAACGTGCTAG` gave a log fluorescence of -0.353 z-score.
`GACGGCCTGGGACTGGGGACGTGCTAG` has a log fluorescence of -0.649 z-score.
The log fluorescence of `TTACGTATCGGGTATCGGTTAGTGCTA` is reported as 0.986 z-score.
The log fluorescence of `TCACACTCCAGTCTGGGACTGTGCTAG` is reported as -0.161 z-score.
The log fluorescence of `GACGGTATCCTTCACCTGACGTGCTAG` is reported as -0.42 z-score.
`TAAGGACTGGACTTTCGGTTAGTGCTA` has a log fluorescence of 0.601 z-score.
The log fluorescence of `TTAGGCTTCGGGTATCGGTTAGTGCTA` is reported as 0.351 z-score.
`ACTGTGTTTTGGATGTCAGAGTGCTAG` gave a log fluorescence of 0.0433 z-score.
`TTAGATTTCGGTTTCGATTAGTGCTAG` has a log fluorescence of 11.3 z-score.
The log fluorescence of `TTAGGTATCGGTAGCGGTTAGTGCTAG` is reported as 0.134 z-score.
With `ATAGGTCTCCTTATCCTTTAGTGCTAG` the log fluorescence was 0.551 z-score.
With `TTAGATTTCAGTCTCGATTGGTGCTAG` the log fluorescence was 2.8 z-score.
The log fluorescence of `TTAGGACTTGGGTTTCGGTTAGTGCTA` is reported as 5.61 z-score.
With `GACGTTCTCCTACTGCTGACGTGCTAG` the log fluorescence was 0.206 z-score.
The log fluorescence of `GACCGTATCGGGACTGGGGACGTGCTA` is reported as 0.394 z-score.
For `GACGGACTGGTACTGCTGACGTGCTAG`, the log fluorescence was -0.608 z-score.

Excerpt of the above (series 2):
For `CAGCCUCAGAGCCCUGACUUCCUGGAUAUUACCAACCCUAAAGCGGUAUUAGAAAAUGCAUUGAGAAACUUCGCCUGUCUGACCACCGGAGAUGUGAUUGCUAUCAACUACAAUGAGAAG`, the bound/input enrichment was 0.551 ratio.
`UGACAAGGGCACUGCAGAGCCAUGCCUUUCUUGGACAUCCAGAAAAGGCUGGGCAUCAGCCUGGACCGGCACUUUAUGUUCCUAAGCGCAGAACAGCCCUAUAAGAACGCCGCUCGGUGC` has a bound/input enrichment of 0.0547 ratio.
`GAAUCCUACUCAGGCGGAUUUUGCAACACCAAGCUCACAGCAGCAGCUCCAUAGUCACAGUAGGGUAGCUUUAGGGCUCUGUGGCCAGGGUUUUAUUCACAUGCAGGUUUGGAAAAUGUA` gave a bound/input enrichment of 0.724 ratio.
`UACUCAACUUUCUUUCCACAUUUUGAAUUCCAAGACAUUAUCCCUCCAGAUGACUUCCUAACGAGUGAUGAAGAGCAAGAUUUGGUUUUAUUUGGAACUAUGAGAGGACAAGUUGUUGGA` has a bound/input enrichment of 0.185 ratio.
`AGGAGGAGGUUAAAGGGUGAGAGUGGGGUGGAAGACUGUGUCAUGGCUCUGGAGACAUUGUUUAGUGUCCUGCUUUCUCUGUGCAGACUGAUGGCCCCUUACACGCCUUUUCUCACUGAG` gave a bound/input enrichment of 0.0979 ratio.
The bound/input enrichment of `AGAAAGCAAAACUUGGAAAGAUUUAAGAAAGGAGACGUAAGAUUCUUGAUUUGCACAGAUGUAGCUGCUAGAGGGAUUGAUAUCCAUGGUGUUCCUUAUGUGAUCAACGUCACCCUGCCU` is reported as 0.322 ratio.
